Results pooled from the literature.
Each numbered part is a random draw from the data of one study; scales do not carry over between parts. Substitutions count along the parent as printed.

Study 1 — target: CCNB2, cyclin fold, Cln2 fusion (human); technique: yeast growth competition, sequencing; medium: yeast; notes: weak parent motif; relative to: not given; direction: higher = stronger binding; measurement: normalised enrichment score
Starting sequence: DNAH7 docking peptide (human); HELFQRLDFDNDG; partner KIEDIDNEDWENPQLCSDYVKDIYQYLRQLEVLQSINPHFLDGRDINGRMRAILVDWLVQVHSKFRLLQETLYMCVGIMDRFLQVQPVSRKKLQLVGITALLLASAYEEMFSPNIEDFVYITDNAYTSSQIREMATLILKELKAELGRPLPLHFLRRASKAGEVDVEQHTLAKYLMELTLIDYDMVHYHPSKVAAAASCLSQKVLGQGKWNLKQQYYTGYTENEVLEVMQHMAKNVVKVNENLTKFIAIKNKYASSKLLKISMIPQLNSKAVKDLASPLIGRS
Substitution = HELFQALDFDNDG [R6A]; value = -0.0504
Substitution = HELAQRLDFDNDG [F4A]; value = 1.51
Substitution = HALFQRLDFDNDG [E2A]; value = 0.453
Substitution = HELFQRLDFDNAG [D12A]; value = 0.303
Substitution = HELFQRLDADNDG [F9A]; value = -0.298
Substitution = AELFQRLDFDNDG [H1A]; value = 0.236
Substitution = HELFQRLDFDADG [N11A]; value = 0.169

Study 2 — technique: RNA Bind-n-Seq; molecule type: RNA; medium: in vitro; tested at: 365 nM; relative to: no-protein control; direction: higher = stronger binding; measurement: RBNS enrichment (R)
Target: RNA binding protein fox-1 homolog 2, RRM domain, GST-SBP tag (RBFOX2, Homo sapiens, UniProt O43251-10, residues 100-194)
Notes: natural RNA segment, single round, ends assumed
Constant ends, left off below: GGGAGUUCUACAGUCCGACGAUC … UGGAAUUCUCGGGUGCCAA
Oligonucleotide = UCUGACCUGCACAACCUUUUCCUCAGCCGACUUCUGGGAAGGAGCUGCCUCGUCCUGACCCACGGAAGGUGGCAGAGUGCUCCCUGCCUGGCCCCUGGCCCCUGGCCCCU; value = 0.486
Oligonucleotide = CUUUUCCUUUUUAAUCCCCUCUUAGCACUUCUGUGAGUGGAGAGGACAUUAAGUAAAAUUUGGAAUCAUAAGUUGCAAUGCAGUAAAAUGGUGCUGGGGAAGGAGCCAGU; value = 0.498
Oligonucleotide = CCAUGAUGAAUGCCAUCAGUCCCUCCUGCUGUUGCCUCCCUGUGACCUGGAGGACAGUGUGUGCCAUGUCUCCCAUACUAGAGAUAAAUAAAUGUAGCCACAUUUACUGU; value = 0.427
Oligonucleotide = AGCAGUUAUAUUUUAAUGCAUUUCAGUGUUUAUAGUAGAAGUUUAGUGGAUAAAACUUUAAGUCCAAUAACUUGGGGGUCAAAUGCUAAUGUUUUAUUCAAUGUAAAGGA; value = 0.662
Oligonucleotide = CUUGCCUUCUAUUCAGUGGACAAUCAGGAGAAGCUUCUGUAUGAGUGUACCAUCUCUGCCUCCUCUCCUUUGUACCCUGCCUUCUGGCUGUAUGGCUUACAUCCUGGAAA; value = 0.388
Oligonucleotide = CCGUGUACACUGAUUACAUUUCAGGAGGACGUGUUCUAUUUAUGUUGUGCCUCUGCAGGCAAAGCCCUUAAUAAAUAUUUUGCAUACUUUCUAAUGACAAUGAAUGGAAU; value = 0.421
Oligonucleotide = UUACAUUGUGUAUUUCUUCCUUUUAGGAAAAACCUACCUAGUACAAGCUACCACGUGCACAGACAGCCCAAUGAGUGGGCCAUUUCUCCACAACCCUGGUGUAAUACAGA; value = 0.368
Oligonucleotide = AGAAGCCUCAUUCCAGAACCCAUCUGGCCAGAGAAGCAGCAGCAUCCUGGGGGAUGGCCGUGCAUGGGGUGUACACUCGCUAUAGGCAUAGGCCCGGCAUGGCUGUCGCU; value = 1.41

Study 3 — technique: DHFR PCA, deep sequencing; medium: yeast; together with: (+)-ABA 0.11 µM; relative to: wild-type fitted maximum; direction: higher = stronger binding; measurement: relative binding score
Target: ABI1, truncated, D143A, DHFR fusion (Arabidopsis thaliana)
Notes: methotrexate growth selection, single substitutions
Starting sequence: PYL1, truncated, DHFR fusion (Arabidopsis thaliana); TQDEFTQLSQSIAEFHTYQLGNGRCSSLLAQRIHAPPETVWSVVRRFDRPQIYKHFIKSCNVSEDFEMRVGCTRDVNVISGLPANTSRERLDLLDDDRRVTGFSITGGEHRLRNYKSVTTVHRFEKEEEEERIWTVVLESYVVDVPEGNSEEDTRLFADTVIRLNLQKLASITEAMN; partner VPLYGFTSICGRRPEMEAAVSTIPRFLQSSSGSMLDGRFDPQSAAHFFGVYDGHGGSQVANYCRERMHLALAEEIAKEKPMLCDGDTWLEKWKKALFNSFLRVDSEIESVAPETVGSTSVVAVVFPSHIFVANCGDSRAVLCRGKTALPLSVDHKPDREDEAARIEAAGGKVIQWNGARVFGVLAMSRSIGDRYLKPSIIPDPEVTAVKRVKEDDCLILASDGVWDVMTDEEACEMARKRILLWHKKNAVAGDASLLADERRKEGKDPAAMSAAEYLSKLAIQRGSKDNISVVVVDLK
Substitution = S9G; value = 22.9%
Substitution = G148Q; value = -2.15%
Substitution = T6V; value = 48.6%
Substitution = I57W; value = 6.52%
Substitution = A158C; value = 79.5%
Substitution = V145G; value = -4.92%
Substitution = S140F; value = -9.04%
Substitution = C25R; value = -0.475%
Substitution = A175Y; value = 5.54%
Substitution = F56E; value = 1.66%
Substitution = E89Y; value = 5.21%
Substitution = S171D; value = 45.5%
Substitution = T101L; value = 68.8%
Substitution = G107T; value = -1.05%
Substitution = P50F; value = -2.81%

Study 4 — technique: protein-binding microarray; molecule type: double-stranded DNA, one strand shown; medium: in vitro; tested at: not given; direction: higher = stronger binding; measurement: E-score
Target: Myc proto-oncogene protein, bHLH-zipper, MAX partner unstated (MYC, Homo sapiens, UniProt P01106, residues 368-449)
UniProt P01106, sequence (368-449, looked up): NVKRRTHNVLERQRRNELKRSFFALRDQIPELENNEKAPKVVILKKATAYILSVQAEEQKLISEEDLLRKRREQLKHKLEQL
Notes: k-mer, scored over probes, only values ≥0.25
Oligonucleotide = GGGGACCA; value = 0.26
Oligonucleotide = ATGCTGCC; value = 0.256
Oligonucleotide = CGTGTATA; value = 0.26
Oligonucleotide = CATGTGTC; value = 0.463
Oligonucleotide = AGCCACAC; value = 0.308
Oligonucleotide = CACGCGTG; value = 0.455
Oligonucleotide = CATGCGGA; value = 0.431
Oligonucleotide = GACACGCC; value = 0.37
Oligonucleotide = TCACGTGA; value = 0.436
Oligonucleotide = ACAGCACG; value = 0.339
Oligonucleotide = ATAACCAC; value = 0.338
Oligonucleotide = CATGTGGC; value = 0.48
Oligonucleotide = CGTGCGTA; value = 0.311
Oligonucleotide = GCCACACC; value = 0.364
Oligonucleotide = ATGGTGTG; value = 0.337
Oligonucleotide = ATGCGTTC; value = 0.329
Oligonucleotide = GGCCATGA; value = 0.346
Oligonucleotide = AACACGTG; value = 0.496
Oligonucleotide = CGCGGTGC; value = 0.274
Oligonucleotide = CGCGTGGC; value = 0.475
Oligonucleotide = AACGAGGT; value = 0.293
Oligonucleotide = CGCGTACA; value = 0.293
Oligonucleotide = ATCACGCG; value = 0.417
Oligonucleotide = ACCCATGC; value = 0.396
